Experimental data from different studies.
Numbered parts are unrelated; each lists some results of a single study. Positions count from the first letter of the parent shown.

Study 1
Target: Prothrombin, mature alpha-thrombin (F2, Homo sapiens, UniProt P00734)
Technique: aptamer microarray, sandwich
Molecule type: DNA with 2'F-ANA
Matrix: in vitro
Tested at: 200 nM
Notes: whole 15-mer aptamer, many near background
Added: Cy3 exosite-II aptamer, 400 nM
Reading: higher = stronger binding
Sequence: GGTTGGTGTGGTTGG
Modification | mean fluorescence intensity [a.u.]
2'F-ANA at 3 4 10 12 13 | 319
2'F-ANA at 1 2 4 5 6 12 13 | 70
2'F-ANA at 1 5 6 8 11 12 14 | 54.3
2'F-ANA at 1 2 5 6 7 | 57
2'F-ANA at 1 3 5 8 11 12 | 126
2'F-ANA at 5 6 9 12 14 15 | 51.9
2'F-ANA at 1 4 9 10 11 12 13 | 50.8
2'F-ANA at 1 2 4 5 6 7 12 13 | 77
2'F-ANA at 1 3 4 6 7 9 10 11 12 14 | 67.1
2'F-ANA at 1 3 4 5 7 8 12 14 | 63.8
2'F-ANA at 1 2 4 5 8 9 13 | 72.6
2'F-ANA at 1 2 5 7 8 9 12 13 14 15 | 44.1
2'F-ANA at 1 2 5 6 11 | 51.8
2'F-ANA at 1 2 3 8 9 10 14 | 54
2'F-ANA at 3 4 6 8 10 11 14 | 170
2'F-ANA at 2 5 9 10 11 12 14 | 48.3
2'F-ANA at 2 9 11 | 397
2'F-ANA at 3 4 9 10 12 13 14 15 | 212
2'F-ANA at 3 4 5 7 10 12 13 14 | 55.2
2'F-ANA at 2 3 7 8 10 11 14 | 261
2'F-ANA at 4 7 8 9 10 13 15 | 68.9
2'F-ANA at 1 3 4 6 7 8 9 11 13 14 | 64.2
2'F-ANA at 1 4 6 8 9 10 11 12 13 14 | 49.3
2'F-ANA at 2 3 5 6 7 8 9 13 14 | 51.6
2'F-ANA at 3 4 5 8 9 11 15 | 84.8

Study 2
Target: RNA binding protein fox-1 homolog 2, RRM domain, GST-SBP tag (RBFOX2, Homo sapiens, UniProt O43251-10, residues 100-194)
Technique: RNA Bind-n-Seq
Molecule type: RNA
Matrix: in vitro
Tested at: 365 nM
Notes: natural RNA segment, single round, ends assumed
Baseline: no-protein control
Reading: higher = stronger binding
Shared flanks, not repeated: GGGAGUUCUACAGUCCGACGAUC … UGGAAUUCUCGGGUGCCAA
Residues (chain): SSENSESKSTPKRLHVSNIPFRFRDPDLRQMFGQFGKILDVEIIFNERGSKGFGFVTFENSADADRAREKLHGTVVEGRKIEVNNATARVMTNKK
Sequence | RBNS enrichment (R)
ACUCAGAAAGAGGUCUCCCCAUCCCCAUUCGGGGCUGACGAUGGGGGGCUGAUGGCUGCCCCUGCGUGGCCUGAGUCCUGGUCCCUCUGAGGCAGUUGACGGGGCAGUCA | 0.312
CCUGUACAGGGGGAGGCGGCAGCUCUGGGACCCUGUGCCUGUCCACCCAAAGGCUCCAGCCAGCUGCACUCCUGGCAGUUUCCUGCACUUGGGCCUGAUGCUUCUCUAAC | 1.03
AAUUAGCCGCUUCUUUUCCUCCCAACCUCUUAGCCGGGUAGAGAGGCAUUCCCAGGGGCUCCUGUCCAGCUGUCUCUGUCUGGGAAUGAUCUAACCUGGGUUGAGCCUCC | 0.258
GCCCGCAAACCUGUGAACUUUCGCCAGUGCCUGGCCUCAGACUCUGUGGGCUCUGCGUGGCCGGGCCUUGCUGGAGGCCCAGUGGGUUUUCUGGGCAAAGCAUGGCCCCU | 0.31
CUAAACAAAGCACACUUUUCAGGACUUGCUGGGUCACCUUUUCCUGAGGAAUGAUAGCGAAGAGUGUUUUUUUCAUAAACUGGAUCAAACUCCGUCUUCAUGUUUACCAU | 0.727
CUUGUAUCGAUCCUGCGAAUCAGUGAUUAUCUUUGUUGGAAAACCUUAUCAAAUGUGUCUGCAAAUCAAGAUGGUCUAAAGUGCAAGCCAGUUUUUUGUUUGCUUGUUUU | 0.491
CUUAAAUGAUAGGGACUUAAGAGUGCUGAUUGAAGAAAGAUCCUAUUCUUAGGUCUAACUCGAUUUUUGUGCUCAGGGAAGAUGCACUGAUGUCUUCAAAAAAAAAUCAA | 0.302
UACUCUGUUGCUGGCUUUAGCAGAGAAUAGGAGGAACCAUAUGAAAAAGAUCAGGCUUUCUGACUUCCAUCCCCAAAACACAUUUACCAGCAUACUCCAAACUGUUUCUG | 0.795
AUUCACCAGAAGGGAAACAUCUCAGGCCAACAUAGGCAAAUGAAAAGGGCUAUUAAAAUAUUUUUACACCUUUGAAAAUUGCAGGCUUGGUACAAAGAGGUCUGUCAUCU | 0.281
AGCAUGGGGGGCAGGAGCCAGGGAGUCUAUUAGGUUCUAACCAACCUAGUUUUCAUUGUUGACAAGUGAGGCCAGGCUUCCACUCGACCAAAAGCUAAGGAUUGCCACCC | 1.56
UAGGCUUCUAUUACCUAUUAGGUGGAAAUUUUAUAUGUAAAUGUGUUAGCACUGAUAGUCCUUUUUCCAAUGUUUUAUUGGGGAAUUAAAUAGUGUGAUGUUUGGAUUGA | 0.455
GAUUUGUUUUCUUCAAUAGUCUUAUUUUCAGUCUCUCAAAUACAGCCAACUUAAAGUUUUAGUUUGGUGUUUAUUGAAAAUUAACCAAACUUAAUACUAGGAGAAGACUG | 0.417

Study 3
Target: Sal-like protein 4, full length isoform A (SALL4, Homo sapiens, UniProt Q9UJQ4, residues 1-1053)
Sequence of UniProt Q9UJQ4 (whole entry, looked up): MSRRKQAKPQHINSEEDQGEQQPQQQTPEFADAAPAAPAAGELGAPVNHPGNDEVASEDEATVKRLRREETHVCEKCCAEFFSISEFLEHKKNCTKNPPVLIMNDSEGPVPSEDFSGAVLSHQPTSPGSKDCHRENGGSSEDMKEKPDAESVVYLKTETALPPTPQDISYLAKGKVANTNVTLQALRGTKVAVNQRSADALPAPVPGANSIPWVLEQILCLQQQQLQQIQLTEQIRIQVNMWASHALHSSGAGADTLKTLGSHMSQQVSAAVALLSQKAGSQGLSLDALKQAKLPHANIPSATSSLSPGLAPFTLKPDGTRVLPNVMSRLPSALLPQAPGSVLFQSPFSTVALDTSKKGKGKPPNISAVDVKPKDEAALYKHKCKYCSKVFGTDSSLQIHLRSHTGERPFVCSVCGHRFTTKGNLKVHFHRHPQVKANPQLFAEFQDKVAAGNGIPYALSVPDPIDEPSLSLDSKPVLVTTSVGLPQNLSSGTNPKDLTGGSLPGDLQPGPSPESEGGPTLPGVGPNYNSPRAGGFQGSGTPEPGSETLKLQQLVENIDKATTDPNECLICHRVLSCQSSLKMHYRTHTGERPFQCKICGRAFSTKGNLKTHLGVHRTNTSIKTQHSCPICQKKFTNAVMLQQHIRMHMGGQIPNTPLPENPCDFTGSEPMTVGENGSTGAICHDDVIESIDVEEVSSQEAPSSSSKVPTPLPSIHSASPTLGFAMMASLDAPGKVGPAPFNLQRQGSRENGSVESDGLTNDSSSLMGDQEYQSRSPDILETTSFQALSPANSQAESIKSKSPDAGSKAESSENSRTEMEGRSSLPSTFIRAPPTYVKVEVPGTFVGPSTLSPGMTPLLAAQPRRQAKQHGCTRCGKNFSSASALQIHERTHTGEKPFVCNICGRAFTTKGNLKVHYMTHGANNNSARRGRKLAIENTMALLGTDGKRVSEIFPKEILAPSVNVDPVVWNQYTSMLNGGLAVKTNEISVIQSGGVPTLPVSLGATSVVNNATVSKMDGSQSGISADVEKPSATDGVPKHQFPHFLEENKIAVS
Technique: universal PBM
Molecule type: double-stranded DNA, one strand shown
Matrix: in vitro
Tested at: 600 nM
Notes: 8-mer, flanks averaged, mean of replicates
Reading: higher = stronger binding
Sequence | E-score
ACTTCAAC | 0.1
AAACCGTA | 0.0803
TACTGACA | 0.0978
CTGCTTTA | 0.122
CATCCGGC | -0.289
ATCCAGGG | -0.176
TCTACAAA | 0.139
CTAGGTGA | -0.186
CTCGGCCA | -0.172
ACGAGGTA | -0.0417
GTCCCGCA | -0.225
CGGCCTGC | -0.372
AAAGCCGT | 0.00366
CTGCCTTA | -0.0836
CCAACGAC | -0.165
AACAGCTG | 0.00907
AGACTCGG | -0.31
CGAGGTGA | 0.00628

Study 4
Target: ABI1, truncated, D143A, DHFR fusion (Arabidopsis thaliana)
Technique: DHFR PCA, deep sequencing
Matrix: yeast
Notes: methotrexate growth selection, single substitutions
Added: (+)-ABA 2500 µM
Baseline: wild-type fitted maximum
Reading: higher = stronger binding
Parent: PYL1, truncated, DHFR fusion (Arabidopsis thaliana); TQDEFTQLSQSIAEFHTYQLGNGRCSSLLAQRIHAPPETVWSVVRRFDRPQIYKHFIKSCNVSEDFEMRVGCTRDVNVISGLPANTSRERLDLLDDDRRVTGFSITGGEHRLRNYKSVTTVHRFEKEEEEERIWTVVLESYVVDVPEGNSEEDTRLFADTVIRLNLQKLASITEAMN
Substitution | relative binding score
R111N | 80.7%
T6Y | 94%
Q167C | 91.9%
R163K | 99.9%
G23Q | 93.7%
A30R | 98.3%
P37M | 90%
F15W | 103%
T119D | 25.8%
H122I | 80.4%
T173A | 96.8%
G81H | 88.6%
T120N | 59.9%
F5Q | 108%
A84W | 57.8%
A13C | 95.5%
E152W | 93.6%
T160I | 87.4%
T73M | 92.5%
G71H | 87.5%
I33C | 88.3%
L29C | 93.3%

Study 5
Target: CCNE2, cyclin fold, Cln2 fusion (human)
Technique: yeast growth competition, sequencing
Matrix: yeast
Notes: weak parent motif
Baseline: not given
Reading: higher = stronger binding
Parent: CDC6 docking peptide (human); TLKGRRLVFDNQL
Substitution | normalised enrichment score
TLKGRRVVFDNQL [L7V] | 0.186
TLKGRRLVFDNQP [L13P] | 0.826
TLKGRRLVFDCQL [N11C] | 0.894
TLKGQRLVFDNQL [R5Q] | -0.606
TYKGRRLVFDNQL [L2Y] | 1.46
TLKGRRLVFDEQL [N11E] | 0.334
TLKGYRLVFDNQL [R5Y] | 0.303
TLKGRRLVCDNQL [F9C] | -0.035
TLRGRRLVFDNQL [K3R] | 1.12
TLKGRRLVFDMQL [N11M] | 0.154
TLKGERLVFDNQL [R5E] | -0.0154
TLKGRRLVFDNTL [Q12T] | 0.217
TLTGRRLVFDNQL [K3T] | 1.31
TLKGRRLVFDNQT [L13T] | -1.05
TLKGRFLVFDNQL [R6F] | -0.441
TLKGRRLMFDNQL [V8M] | -0.545
TLKGRRLVFDNAL [Q12A] | 0.649
TDKGRRLVFDNQL [L2D] | -0.639
TLKGRRLVFDNRL [Q12R] | 0.288
TLKGRVLVFDNQL [R6V] | 0.909
TLKGMRLVFDNQL [R5M] | 0.491
TLKGRRLVFGNQL [D10G] | -0.474
TLKGRRCVFDNQL [L7C] | -0.0593
TLKGRILVFDNQL [R6I] | -0.0789
GLKGRRLVFDNQL [T1G] | 0.713

Mixed results
Substance | target | test | system | conditions | how to read | quantity | value
PhoQ, residues 284 288 289 292 302 303 ALVSVA | PhoP, residues 12 14 15 18 19 NYFTV (Escherichia coli, UniProt P23836) | Sort-seq, refers to: YFP reporter | E. coli | PhoQ-PhoP variant library, added: 10 µM Mg2+ | baseline: high Mg2+ state, higher = stronger signaling | fold induction | 0.877
